Experimental data from different studies.
Numbers after ± are the reported error.

For `CNC(=O)c1ccc(-c2cnc3ncc(Cc4ccc5ncccc5c4)n3n2)cc1F`, the AUC(0-last) was 8510 ng·h/mL (human, severe hepatic impairment (Child-Pugh C), plasma; oral, 200 mg single dose).
The AUC(0-last) of `CC(C)(C)OC[C@@H]1C(=O)NCCN1C(=O)C[C@H](N)Cc1cc(F)c(F)cc1F` is reported as 167 ± 28.5 ng·h/mL (human, male, plasma; oral, single dose, fixed-dose combination with metformin, fed).
`CCCC[C@H](NC(C)=O)C(=O)N[C@H]1CC(=O)NCCCC[C@@H](C(=O)O)NC(=O)[C@H](Cc2c[nH]c3ccccc23)NC(=O)[C@H](CCCN=C(N)N)NC(=O)[C@@H](Cc2ccccc2)NC(=O)[C@H](Cc2cnc[nH]2)NC1=O` has an AUC(0-last) of 475 ± 75.2 ng·h/mL (LC-MS/MS, non-compartmental; human, plasma; subcutaneous, 2.5 mg twice daily).
`C[C@@H](c1nc(-c2ccc(C#N)cc2)cs1)[C@](O)(Cn1cncn1)c1cc(F)ccc1F` has an AUC(0-last) of 238000 ng·h/mL (human, both sexes, plasma; oral, 200 mg single dose, together with: ketoconazole 200 mg BID).
The AUC(0-last) of `Cc1c(C(=O)Nc2ccc(N3C[C@@H](C)O[C@@H](C)C3)nc2)cccc1-c1ccc(OC(F)(F)F)cc1` is reported as 9900 ng·h/mL (human, plasma; oral, 400 mg once daily, cycle 1 day 15).
`CCOCCn1c(C2CCN(CCc3ccc(C(C)(C)C(=O)O)cc3)CC2)nc2ccccc21` has an AUC(0-last) of 1360 ng·h/mL (human, moderate renal insufficiency, plasma; oral, 20 mg).
The AUC(0-last) of `CS(=O)(=O)n1cc2c(n1)CN([C@H]1CO[C@H](c3cc(F)ccc3F)[C@@H](N)C1)C2` is reported as 158 µM·h (healthy male human, plasma; oral, 200 mg, fasted single dose).
The AUC(0-last) of `CC(C)(/C=C(\C#N)C(=O)N1CCC[C@@H](n2nc(-c3ccc(Oc4ccccc4)cc3F)c3c(N)ncnc32)C1)N1CCN(C2COC2)CC1` is reported as 316 ng·h/mL (human; 400 mg single dose, median, alone).
`CC#CC(=O)NCCCC(=O)c1nc(-c2ccc(C(=O)Nc3ccccn3)cc2)c2c(N)nccn12` gave an AUC(0-last) of 700 ng·h/mL (human, healthy control, plasma; oral, 50 mg acalabrutinib, single, geometric mean).

Repeated from above:
The AUC(0-last) of `CC(C)(/C=C(\C#N)C(=O)N1CCC[C@@H](n2nc(-c3ccc(Oc4ccccc4)cc3F)c3c(N)ncnc32)C1)N1CCN(C2COC2)CC1` is reported as 316 ng·h/mL (human; 400 mg single dose, median, alone).
